Published values of several laboratories.
Parts stem from different laboratories: compare values within a part only. Positions count from the first letter of the parent shown.

Sample 1 — target: CCNA1, cyclin fold, Cln2 fusion (human); method: yeast growth competition, sequencing; medium: yeast; notes: weak parent motif; baseline: not given; direction: higher = stronger binding
Starting sequence: RB1 docking peptide (human); PKPLKKLRFDIEG
Variant	normalised enrichment score
P1S	0.0996
K5R	0.0611
K6D	0.394
R8G	-0.118
L4H	0.0586
P1N	0.344
I11W	0.104
G13S	-0.119
R8L	-0.0381
P3M	0.253
P1T	0.322
D10R	0.718
L4D	0.692
E12V	0.0476
K6V	0.387
R8N	0.556

Sample 2 — target: UBE2E1 UBC core domain (UniProt P51965); method: yeast two-hybrid; medium: yeast; notes: mostly zero background; baseline: not given; direction: higher = stronger interaction
Sequence of UniProt P51965 (whole entry, looked up): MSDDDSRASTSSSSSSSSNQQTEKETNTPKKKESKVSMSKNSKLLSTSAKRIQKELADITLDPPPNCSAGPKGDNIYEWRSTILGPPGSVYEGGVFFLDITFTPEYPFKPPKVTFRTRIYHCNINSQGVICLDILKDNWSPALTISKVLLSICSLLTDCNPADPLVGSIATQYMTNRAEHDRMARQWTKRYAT
B1: CNOT4 RING domain (UniProt O95628); chain MSRSPDAKEDPVECPLCMEPLEIDDINFFPCTCGYQICRFCWHRIRTDENGLCPACRKPYPED
B2: RUFY1 RING domain (UniProt Q96T51); chain QALKGHAWLKDDEATHCRQCEKEFSISRRKHHCRNCGHIFCNTCSSNELALPSYPKPVRVCDSCHTLLLQRCSSTAS
B3: NFX1 RING domain (UniProt Q12986); chain IEQLTTEKYECMVCCELVRVTAPVWSCQSCYHVFHLNCIKKWARSPASQADGQSGWRCPACQNVSAHVPNTY
B4: ZNRF4 RING domain (UniProt Q8WWF5); chain VRTFTWHNDLCAICLDEYEEGDQLKILPCSHTYHCKCIDPWFSQAPRRSCPVCKQSVAATEDSF
B5: RNF6 RING domain (UniProt Q9Y252); chain NSIDSELGKICSVCISDYVTGNKLRQLPCMHEFHIHCIDRWLSENCTCPICRQPVLGSNIAN
B6: MID2 RING domain (UniProt Q9UJV3); chain KMETLESELTCPICLELFEDPLLLPCAHSLCFSCAHRILVSSCSSGESIEPITAFQCPTCRYVISLNHRGL
B7: RNF103 RING domain (UniProt O00237); chain WPADMLHCTECVVCLENFENGCLLMGLPCGHVFHQNCIVMWLAGGRHCCPVCRWPSYKKKQPY
B8: TRIM41 RING domain (UniProt Q8WV44); chain PVQTLQEEAVCAICLDYFTDPVSIGCGHNFCRVCVTQLWGGEDEEDRDELDREEEEEDGEEE
B9: ARIH2 RING domain (UniProt O95376); chain HVPTSHPPHHCAVCMQFVRKENLLSLACQHQFCRSCWEQHCSVLVKDGVGVGVSCMAQDCPLRTPEDFVF
Molecule	lacZ reporter activity
B1 (CNOT4 RING domain)	13300
B2 (RUFY1 RING domain)	0
B3 (NFX1 RING domain)	0
B4 (ZNRF4 RING domain)	12500
B5 (RNF6 RING domain)	0
B6 (MID2 RING domain)	0
ASPKIFQKTKCSICNSALELPSVHFLCGHSFHQHCFESYSESDADCPTCLPENRKVMDMI (VPS11 RING domain (UniProt Q9H270))	0
B7 (RNF103 RING domain)	0
FAEQPSVKLCCQLCCSVFKDPVITTCGHTFCRRCALKSEKCPVDNVKLTVVVNNI (TRAF7 RING domain (UniProt Q6Q0C0))	0
B8 (TRIM41 RING domain)	0
DDVLTKDAGECVICLEELLQGDTIARLPCLCIYHKSCIDSWFEVNRSCPEHPAD (ZNRF1 RING domain (UniProt Q8ND25))	10000
B9 (ARIH2 RING domain)	0

Sample 3 — method: universal PBM; form: double-stranded DNA, one strand shown; medium: in vitro; tested at: not given; direction: higher = stronger binding
Target: Sal-like protein 4, full length isoform B (SALL4, Homo sapiens, UniProt Q9UJQ4-2, residues 1-616)
Notes: 8-mer, flanks averaged, mean of replicates
Residues (chain): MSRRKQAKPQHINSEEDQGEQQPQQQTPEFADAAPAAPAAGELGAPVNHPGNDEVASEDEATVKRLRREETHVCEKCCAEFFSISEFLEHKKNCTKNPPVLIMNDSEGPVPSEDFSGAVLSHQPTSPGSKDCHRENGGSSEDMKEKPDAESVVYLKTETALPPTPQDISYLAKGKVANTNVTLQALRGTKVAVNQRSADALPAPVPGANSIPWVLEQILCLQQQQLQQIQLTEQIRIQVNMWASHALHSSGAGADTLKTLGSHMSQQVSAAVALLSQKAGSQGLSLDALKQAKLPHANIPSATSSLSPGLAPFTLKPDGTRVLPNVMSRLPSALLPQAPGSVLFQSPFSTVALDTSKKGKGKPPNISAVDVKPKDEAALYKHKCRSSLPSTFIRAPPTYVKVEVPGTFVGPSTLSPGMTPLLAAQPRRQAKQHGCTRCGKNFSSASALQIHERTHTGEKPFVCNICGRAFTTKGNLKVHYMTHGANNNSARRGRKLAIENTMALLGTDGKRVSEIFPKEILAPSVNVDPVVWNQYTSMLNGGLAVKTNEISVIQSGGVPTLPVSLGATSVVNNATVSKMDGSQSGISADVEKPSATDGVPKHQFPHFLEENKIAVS
Oligonucleotide	E-score
ACACTGAA	0.17
CAGGTCCC	-0.29
AGATGCAG	-0.0221
ATACGTTG	0.126
ATGTTAGA	0.104
AGTATCAC	0.0773
CAAAAGTC	-0.13
CTCGCGCA	-0.067
CAGTAAAA	0.249
AATAACCC	0.155
ACACACAT	0.218
AGCCACAC	-0.064
GTGCAAAC	0.0269
ACCCCACG	-0.215
GCACCCCA	-0.356
CCCCGCTA	-0.172
CGGAATTC	-0.1
AACCCGGG	-0.308
AGTTAAAA	0.248
CATTGGCG	-0.113
AAAGCTAA	0.0837
ATATGCTA	0.229
ACGACAAG	-0.123
GTCATCAA	0.0164

Sample 4 — method: RNA Bind-n-Seq; form: RNA; medium: in vitro; tested at: 365 nM; baseline: no-protein control; direction: higher = stronger binding
Target: RNA binding protein fox-1 homolog 2, RRM domain, GST-SBP tag (RBFOX2, Homo sapiens, UniProt O43251-10, residues 100-194)
Notes: natural RNA segment, single round, ends assumed
Shared flanks, not repeated: GGGAGUUCUACAGUCCGACGAUC … UGGAAUUCUCGGGUGCCAA
Target sequence (chain): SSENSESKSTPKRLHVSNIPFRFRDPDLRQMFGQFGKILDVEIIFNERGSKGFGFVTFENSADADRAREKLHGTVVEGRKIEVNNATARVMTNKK
Oligonucleotide	RBNS enrichment (R)
GCAGACUAGUUUUGGAUACAUUCACAUUUUGUACGUUUUCAUAUAAGCUGACAUAGUGUGAUUUGCCAUGUAAUGUUUAUAGCUGCUGCUGUCUGCACAUUUGGGGGUCU	0.295
AAUACUUGACUUAGCAUAUCUUUCUUCUUUAGACUUACAUAAUGAUAUUCAUCUCUCCAUUAGCAAUUGAAUCCAGGCAUAACCGGGCUCAGUUACACAGCUUGUCUGUG	0.486
UCCUUACCUGACCCCCUACGAGUUUACAGGUCUGUGGCAAUACUCUUAACCAUAAGAAUUGAAAUGGUGAAGAAACAAGUAUACACUAGAGGCUCUUAAAAGUAUUGAAA	0.383
UUCCUCUCACAUCAGUGGGAUACAGAAUUCAGUUUCUCCCUUGCCAGGUCCUUGGGAUGGUUGACCCCUGCCUCUGCAGUAGCCUUUUGUGAGUCUGCUAAGGUAGCUCU	0.28
AGCCUUUCAUAGACUCAUAGGGAAUAAAGCCAAAUGUAGCUCUUACUCUUUAUAAAAUAAAGUGUUAGGUAAAUUGAGAAGACCAUUCCAUCAUUGAAGUGUUGGGAUAU	0.364
GGCGAGUCUAAUUGUUAGACAUUUCUUACUUAUAGUGAUUGGAUUCUGCUUUCCUAUGACUUCUGCCUACUGGGUCUUGUUUUGUUCCUUGGAUCGAAACAGAACCGUUU	0.202
ACUUAGGAAGUAAAUAUCUUUUGAAUUAGAGAAAGUGUUGGGACAGAAAGUACUUUAUGUAACUAAGUGGGCUGUUCAGAAGCUUAGAGGUCAUUUUUUGUAAUUUUCUU	1.2
GUUCUUUUUCCACGCAAUGUAAGAACAUGAUAUACUGUACGUUGGAAAGCAUUUACCUUAUUUAUAUACCUGAAUGUUCCUACUACACAAAUAAACAUAUAUUAAAUUCU	1.09
AAAUUAUGCAGGUGAUAACUUUAUGGUUUGGGACUGUUUAUGGGCUCUUUUAAGUGAAUUUUCAAAUGAAAUGAACUAUGCUUAUUGCUGGCACAUUGAUCCCAUUUCUG	0.621
CCUGUGCCUCAGAUGGCUUGCUGCCAGCUGUCAGAUACACAUAGAAGCUUAUAUCUCUCAAAUUAAUGGAUAUUAGCACUUGGAGGAAUGUAGGGGGAUCUCGGAAUGAA	0.559
UUUGUUCUAAAUAUCAACUAGCGCAAGUGAAUACUGAAGAUUUCUUAGUCAGUUUUUAGGGGAUUUUCGGGGAGGGGAAAUAGGUAAUGUAUGGAGCAUUUUCACUUCUA	2.92
GAUUUGUAGACUCAUGCUAACUUUACUGCCUCUUUUUCACACUUGUUGAAAAAUCUGUGAAGAACAUAGUAAGUUAAGGUUUUCCAACUUGGAAAAAUGUACAUGAUGUG	0.449

For quick reference, copied from above (sample 3):
Oligonucleotide	E-score
AGTTAAAA	0.248
AATAACCC	0.155
ACGACAAG	-0.123
ATACGTTG	0.126
AACCCGGG	-0.308
ATATGCTA	0.229
CATTGGCG	-0.113
CAGTAAAA	0.249
GTGCAAAC	0.0269
